Results of several laboratories.
Numbered parts are unrelated; each lists some results of a single study. Changes are numbered by the printed parent chain.

Study 1
Target: Histone acetyltransferase KAT6A, winged helix 2, GST fusion (KAT6A, Homo sapiens, UniProt Q92794, residues 85-181)
Technique: protein binding microarray
Molecule type: double-stranded DNA, one strand shown
Matrix: in vitro
Tested at: not given
Setting: 8-mer, flanks averaged, mean of 2 arrays, mostly near background
Reference: not given
Reading: higher = stronger binding
Endpoint: E-score
Target sequence (chain): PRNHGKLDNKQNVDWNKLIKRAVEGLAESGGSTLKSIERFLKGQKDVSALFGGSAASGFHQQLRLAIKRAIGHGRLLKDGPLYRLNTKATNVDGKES
ACCTCACG: 0.0752
ATGCTTCG: 0.128
ACCTGGGC: -0.0854
AGTCGCGG: 0.0552
GCCTCCCC: 0.116
CTCTATAA: -0.0658
CAGACCGA: 0.0269
CATCTATC: -0.0745
TCAATTGA: 0.0724
CCACTTGC: -0.0232
CAGGACCA: 0.0545
GAACGGTA: -0.117
CCTCAGAC: 0.0148
AACCGTGA: -0.165
TTAGCGAA: 0.00056
AGTAGGCG: 0.00517
AATTTCCA: -0.122
AAGGCGGT: 0.0453

Study 2
Target: RING finger protein unkempt homolog, zinc fingers 1-6, GST-SBP tag (UNK, Homo sapiens, UniProt Q9C0B0, residues 30-357)
Technique: RNA Bind-n-Seq
Molecule type: RNA
Matrix: in vitro
Tested at: not given
Setting: RNA with constant flanks, ends assumed
Reference: input RNA pool
Reading: higher = stronger binding
Endpoint: bound/input enrichment
Constant ends, left off below: GGGAGUUCUACAGUCCGACGAUC … CAACAGAGGAUUGAGCAUCA
Residues (chain): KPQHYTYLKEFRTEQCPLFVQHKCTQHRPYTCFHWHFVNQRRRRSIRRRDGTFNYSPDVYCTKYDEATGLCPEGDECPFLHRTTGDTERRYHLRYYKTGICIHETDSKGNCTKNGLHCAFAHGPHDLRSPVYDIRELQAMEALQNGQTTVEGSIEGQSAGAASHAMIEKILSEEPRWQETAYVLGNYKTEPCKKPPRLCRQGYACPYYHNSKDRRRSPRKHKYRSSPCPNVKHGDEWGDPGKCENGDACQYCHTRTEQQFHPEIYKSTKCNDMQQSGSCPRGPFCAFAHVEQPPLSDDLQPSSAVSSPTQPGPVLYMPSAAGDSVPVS
AAAGUUAUCUCUCUUUAGGCACGAAGAGCAAUUCAGAAAAAUAUGACUUUUAUUGAUGAAAACCGAGUUAUGCUUAAAUAUCUCUUCCCUUUGAAUGAAAUUGUGGUAGAUUUUUAUGAC: 0.735 ratio
AGAGGUGCAAAGAAGACUGCAGAGAUGAAUGAAAAGCUCUCCAAGAUGGGCGAAAGUUCACUCCGAAACUUUACAAUGGAUACAGAGUCAAGUGUUUAUAACUUCGAAGGAGAAGACUAU: 0.254 ratio
GUGGUUGGGGUGUGAGUGGGCGUUUUCUUAAUGAUAUGCUGCUAGGAUUUCAUGGGCAGCAACCGCCCCGAAGUCUAUGAUCUAGACUCCAGAUUCCAGAGGGACCUUAAGGUUCCCUUC: 0.162 ratio
GCCAUGUUAGUAGAAAACACUAAGGAAGAAGUAAUUGUGAGGAGUAAAGACAAAGAGGAUUCCGUUUGUAGUGCAGCCCUUCAUAAUCCACAAGAGUCACCUGCGACCCUUACUAAAGUG: 0.318 ratio
UGUCUUUAUUUGACGAAAACGAGCUGUUGCGCAGCCAUUGGUACCUGUAUUGGGGAAACACCGCAUACAAGCAAGAAGCUUACAGCCUCAGUGGCGAAAAUUUUUUCAUGUCAGAGACCG: 0.096 ratio
GUUCUCUCUGUCACUGACUUAUUUGUAAGAGAAAAUUAGUUGGACUUGUUUAUUUUCCCGCCGCUUUUAUAAGUACACUCAAGAAUUUGUCAGGGAGAAUAAUUCUGAUAGUGCAUCCCA: 0.0703 ratio
UCCGAUGAACAAGAAGAUGAGGAUGCUGUAGUCAACAGGAUAUCGUUGUUUCUGAGCACCUUCACUCCCGCCGUGUCAGCUGGCGCGGUUUUGCUUUUACCCUUCUCAAUCAUCAGCAAU: 0.13 ratio
UAUUUAUAUUUAUUGACUCUUGAGUUGUUUUUGUAUAUUGGUUUUAUGAUGACGUUCGAGCCGUUCUGUAUUUGAAAGUGCCUUUGCAGCUCAGAACCACAGCAACUAUCACAAAUGACU: 0.588 ratio
UACAGCUUGCCUUUUUAAUGUUAGUCACAAUGUUUUUGUGGUUUGAAGUUUAGUUUAAUGUCCGUGCAGUGACAGGAAAUACACAUUAUGCUGAUGUUGAUGACAGAAUUUAUUUGGUUG: 0.597 ratio
CUUCGGAAUGCACUACAACAGGAAAAUCAUAUUAUAGAUGGAGUAAAGGUCCAGGUUCACACCCGAAGGCCAAAACUUCCGCAAACAUCUGAUGAUGAAAAGAAAGAUUUUUGAGACUGC: 0.179 ratio
GACUUAGAUAAUUCUUUGGAAGUGAAGGCUAAGCCUGCUUCUGGCCUAGAUGGUAAUUUCAACCGCAUCCGAAUGGAUAUGUUCAGUGUGUAGGAGUGAAGACAGGAUCCCGUGCUUAAA: 0.598 ratio

Study 3
Target: FOSL1, bZIP domain (human)
Technique: DHFR protein complementation
Matrix: yeast
Setting: single substitutions, most at no-binding floor
Reference: wild-type JUN-FOS pair
Reading: higher = stronger binding
Endpoint: binding fitness
Starting sequence: JUN, bZIP domain (human); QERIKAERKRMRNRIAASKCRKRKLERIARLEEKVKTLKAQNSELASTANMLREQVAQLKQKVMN; partner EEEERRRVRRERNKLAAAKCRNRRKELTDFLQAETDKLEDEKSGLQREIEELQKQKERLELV
S47Y: -0.515 natural log
M51P: -1.43 natural log
Q41N: -0.799 natural log
A49K: -0.628 natural log
T48A: -0.451 natural log
A46T: -0.408 natural log
S43G: -0.46 natural log
N42E: -1.31 natural log
E44P: -1.36 natural log
R53K: -0.48 natural log
Q41R: -0.699 natural log
E32P: -1.31 natural log
A29R: -0.498 natural log
L38S: -1.36 natural log
E54W: -0.891 natural log
S47V: -0.256 natural log
A57S: -0.523 natural log
A40F: -0.583 natural log
A29V: -0.774 natural log
T48M: -0.358 natural log
E54L: -0.67 natural log
L45K: -1.33 natural log
R30P: -0.802 natural log
T48C: -0.571 natural log
A57G: -0.592 natural log

Study 4
Target: Sal-like protein 4, full length isoform B (SALL4, Homo sapiens, UniProt Q9UJQ4-2, residues 1-616)
Technique: universal PBM
Molecule type: double-stranded DNA, one strand shown
Matrix: in vitro
Tested at: not given
Setting: 8-mer, flanks averaged, mean of replicates
Reading: higher = stronger binding
Endpoint: E-score
Residues (chain): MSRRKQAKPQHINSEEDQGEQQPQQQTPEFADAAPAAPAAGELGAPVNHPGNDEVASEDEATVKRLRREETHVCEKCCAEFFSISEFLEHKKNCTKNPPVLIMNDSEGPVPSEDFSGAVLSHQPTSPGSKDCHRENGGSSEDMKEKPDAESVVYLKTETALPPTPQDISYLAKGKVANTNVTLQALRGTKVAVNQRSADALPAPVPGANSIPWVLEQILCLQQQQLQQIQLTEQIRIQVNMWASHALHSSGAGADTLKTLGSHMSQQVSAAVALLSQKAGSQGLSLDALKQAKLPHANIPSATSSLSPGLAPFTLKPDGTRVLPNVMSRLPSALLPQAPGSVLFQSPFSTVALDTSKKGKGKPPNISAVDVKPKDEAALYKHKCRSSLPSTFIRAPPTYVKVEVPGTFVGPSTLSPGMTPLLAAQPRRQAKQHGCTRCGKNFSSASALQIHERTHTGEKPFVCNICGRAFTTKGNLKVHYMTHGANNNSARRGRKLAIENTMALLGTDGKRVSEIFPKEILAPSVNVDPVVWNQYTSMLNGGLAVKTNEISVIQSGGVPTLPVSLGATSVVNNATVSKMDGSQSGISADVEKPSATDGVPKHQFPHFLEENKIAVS
CCCATCCC: -0.181
CGGATAGA: 0.0277
GAATAGCC: -0.207
TACGAATA: 0.301
CCTGAACA: -0.0195
CTCACATC: -0.00388
GGCGGACA: -0.228
AATTTTGC: 0.28
CCGTGAGG: -0.384
ACTATCTA: 0.183
GATAATCC: -0.0158
TAAAGTTA: 0.202
CGCCAATA: 0.166
TAATTAGA: 0.266
ACGATTTG: 0.016
AAGGCTGT: -0.187
ACTAGCAG: -0.0768
AAGATTCC: 0.0841
AGGATATC: 0.0633
ATCAATTC: 0.154

Study 5
Target: Interferon regulatory factor 5, full length, phosphomimetic (IRF5, Homo sapiens, UniProt Q13568-2, residues 1-514, K96S/S451D/S453D/S456D/S462D)
Technique: protein-binding microarray
Molecule type: double-stranded DNA, one strand shown
Matrix: in vitro
Tested at: 250 nM
Setting: 60-bp whole probe
Added: salmon DNA 0.4 mg/ml
Reference: random background probes
Reading: higher = stronger binding
Endpoint: log fluorescence
Constant ends, left off below: GCCTAGCAC … GTCTTGATTCGCTTGACGCTGCTG
AACTGTCTGCCTTTCAATCCGTGCTAG: 0.677 z-score
TCAAGTTTTCCTTCATGACTGTGCTAG: 0.826 z-score
TTCCTTATTGCTTCCTCTTTGTGCTAG: 1.41 z-score
AACGGACTGGGTCTCGGGACGTGCTAG: -0.644 z-score
GATGGTATCGGTATCGGGACGTGCTAG: 7.39 z-score
GACGGTTTCGCACTGGGGACGTGCTAG: 2.22 z-score
TGAGATCTCAGACTGGATTAGTGCTAG: -0.355 z-score
TTAGGTATCCTTCTTCTTTAGTGCTAG: 0.648 z-score
TGATGTCTGGGTCTTGGTTCGTGCTAG: -0.614 z-score
TGTGGTGCAGCTCCCTCCTCGTGCTAG: -0.695 z-score
GACGAACTGGGGATTGGAGACGTGCTA: -0.504 z-score
TTAGCTCTCGGTATCGGTTAGTGCTAG: 5.57 z-score
GACGGTATCGGGCTCGGGACGTGCTAG: 1.09 z-score
TTAGCTTTCGGGTATCGGTTAGTGCTA: 10.3 z-score
GACCGACTGCTACTGCTGACGTGCTAG: -0.66 z-score
CTGCTGATCGGTTGGGGTGGGTGCTAG: 0.0821 z-score
TCAAGGTTTTCTCTGGTACTGTGCTAG: 0.3 z-score
TTAGGACTGGACTTTGGGTTAGTGCTA: -0.432 z-score
GACGATATCGGGTTTCGAGCCGTGCTA: 2.99 z-score
TTAAATCTCAGTTTCGATTAGTGCTAG: 10.1 z-score
TTAGGTCTCCTTTTCCGTTAGTGCTAG: 0.221 z-score
GACGGACTGGTTCTCCTGACGTGCTAG: -0.724 z-score
GACGATTTCGGGTATCGTGACGTGCTA: 4 z-score
TTATGTATCCTTCTCCTTTAGTGCTAG: 0.866 z-score
TTAGATTTCGCGTTTCGATTAGTGCTA: 6.07 z-score

Excerpt of the above (study 4):
GATAATCC: -0.0158
ACGATTTG: 0.016
ACTAGCAG: -0.0768
TAATTAGA: 0.266
AATTTTGC: 0.28
GGCGGACA: -0.228
ATCAATTC: 0.154
CGCCAATA: 0.166
AAGGCTGT: -0.187
ACTATCTA: 0.183
CCTGAACA: -0.0195
